Assay results of several laboratories.
A part holds a random share of what one study measured.
UniProt P42336, sequence (whole entry, unmodified, looked up): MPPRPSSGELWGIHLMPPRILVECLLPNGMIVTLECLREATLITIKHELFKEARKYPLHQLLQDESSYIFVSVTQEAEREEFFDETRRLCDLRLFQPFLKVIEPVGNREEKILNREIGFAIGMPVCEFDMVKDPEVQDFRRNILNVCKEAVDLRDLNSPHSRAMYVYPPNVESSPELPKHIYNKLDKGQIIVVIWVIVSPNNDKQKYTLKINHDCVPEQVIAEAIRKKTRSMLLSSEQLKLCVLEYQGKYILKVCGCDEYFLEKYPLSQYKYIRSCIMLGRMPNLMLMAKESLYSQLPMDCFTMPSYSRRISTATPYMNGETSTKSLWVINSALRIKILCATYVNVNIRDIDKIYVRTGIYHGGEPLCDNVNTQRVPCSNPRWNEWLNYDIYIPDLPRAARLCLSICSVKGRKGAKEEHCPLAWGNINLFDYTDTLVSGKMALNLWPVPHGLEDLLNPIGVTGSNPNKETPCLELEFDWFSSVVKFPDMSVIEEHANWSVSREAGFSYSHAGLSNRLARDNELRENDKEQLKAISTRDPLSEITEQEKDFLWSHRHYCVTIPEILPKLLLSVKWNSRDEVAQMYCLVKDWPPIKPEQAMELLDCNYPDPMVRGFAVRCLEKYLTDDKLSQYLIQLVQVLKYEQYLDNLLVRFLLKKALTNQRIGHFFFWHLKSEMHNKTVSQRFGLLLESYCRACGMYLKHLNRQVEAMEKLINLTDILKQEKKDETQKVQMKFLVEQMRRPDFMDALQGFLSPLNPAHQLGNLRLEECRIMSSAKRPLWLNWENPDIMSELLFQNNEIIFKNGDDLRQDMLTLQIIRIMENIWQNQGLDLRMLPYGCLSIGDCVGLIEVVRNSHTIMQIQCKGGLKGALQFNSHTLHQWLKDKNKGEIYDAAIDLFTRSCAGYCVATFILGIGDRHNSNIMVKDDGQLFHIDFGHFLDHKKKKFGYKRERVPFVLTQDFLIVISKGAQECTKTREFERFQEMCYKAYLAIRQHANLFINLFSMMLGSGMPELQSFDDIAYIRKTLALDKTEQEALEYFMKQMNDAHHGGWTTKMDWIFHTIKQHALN
UniProt Q86UE8, sequence (whole entry, looked up): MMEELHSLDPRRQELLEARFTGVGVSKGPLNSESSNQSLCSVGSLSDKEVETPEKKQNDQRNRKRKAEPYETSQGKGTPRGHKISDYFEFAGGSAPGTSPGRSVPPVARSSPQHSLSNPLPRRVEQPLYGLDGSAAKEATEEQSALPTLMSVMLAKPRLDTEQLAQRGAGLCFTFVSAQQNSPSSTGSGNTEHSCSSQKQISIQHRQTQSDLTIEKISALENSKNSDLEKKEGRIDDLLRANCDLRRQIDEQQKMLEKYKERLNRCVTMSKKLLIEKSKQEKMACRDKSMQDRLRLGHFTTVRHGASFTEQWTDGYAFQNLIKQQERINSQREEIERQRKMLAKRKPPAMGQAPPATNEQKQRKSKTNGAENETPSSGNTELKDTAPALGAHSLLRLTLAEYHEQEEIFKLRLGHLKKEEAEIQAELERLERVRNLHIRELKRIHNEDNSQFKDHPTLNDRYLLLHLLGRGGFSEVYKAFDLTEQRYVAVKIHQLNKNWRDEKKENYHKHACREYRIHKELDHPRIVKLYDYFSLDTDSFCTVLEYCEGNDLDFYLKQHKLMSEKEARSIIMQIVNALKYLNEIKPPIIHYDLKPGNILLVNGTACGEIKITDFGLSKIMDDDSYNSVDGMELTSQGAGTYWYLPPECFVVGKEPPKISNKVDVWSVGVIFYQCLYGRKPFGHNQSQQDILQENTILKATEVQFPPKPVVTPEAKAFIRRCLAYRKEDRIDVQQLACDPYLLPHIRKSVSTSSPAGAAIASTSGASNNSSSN
UniProt P35916, sequence (whole entry, looked up): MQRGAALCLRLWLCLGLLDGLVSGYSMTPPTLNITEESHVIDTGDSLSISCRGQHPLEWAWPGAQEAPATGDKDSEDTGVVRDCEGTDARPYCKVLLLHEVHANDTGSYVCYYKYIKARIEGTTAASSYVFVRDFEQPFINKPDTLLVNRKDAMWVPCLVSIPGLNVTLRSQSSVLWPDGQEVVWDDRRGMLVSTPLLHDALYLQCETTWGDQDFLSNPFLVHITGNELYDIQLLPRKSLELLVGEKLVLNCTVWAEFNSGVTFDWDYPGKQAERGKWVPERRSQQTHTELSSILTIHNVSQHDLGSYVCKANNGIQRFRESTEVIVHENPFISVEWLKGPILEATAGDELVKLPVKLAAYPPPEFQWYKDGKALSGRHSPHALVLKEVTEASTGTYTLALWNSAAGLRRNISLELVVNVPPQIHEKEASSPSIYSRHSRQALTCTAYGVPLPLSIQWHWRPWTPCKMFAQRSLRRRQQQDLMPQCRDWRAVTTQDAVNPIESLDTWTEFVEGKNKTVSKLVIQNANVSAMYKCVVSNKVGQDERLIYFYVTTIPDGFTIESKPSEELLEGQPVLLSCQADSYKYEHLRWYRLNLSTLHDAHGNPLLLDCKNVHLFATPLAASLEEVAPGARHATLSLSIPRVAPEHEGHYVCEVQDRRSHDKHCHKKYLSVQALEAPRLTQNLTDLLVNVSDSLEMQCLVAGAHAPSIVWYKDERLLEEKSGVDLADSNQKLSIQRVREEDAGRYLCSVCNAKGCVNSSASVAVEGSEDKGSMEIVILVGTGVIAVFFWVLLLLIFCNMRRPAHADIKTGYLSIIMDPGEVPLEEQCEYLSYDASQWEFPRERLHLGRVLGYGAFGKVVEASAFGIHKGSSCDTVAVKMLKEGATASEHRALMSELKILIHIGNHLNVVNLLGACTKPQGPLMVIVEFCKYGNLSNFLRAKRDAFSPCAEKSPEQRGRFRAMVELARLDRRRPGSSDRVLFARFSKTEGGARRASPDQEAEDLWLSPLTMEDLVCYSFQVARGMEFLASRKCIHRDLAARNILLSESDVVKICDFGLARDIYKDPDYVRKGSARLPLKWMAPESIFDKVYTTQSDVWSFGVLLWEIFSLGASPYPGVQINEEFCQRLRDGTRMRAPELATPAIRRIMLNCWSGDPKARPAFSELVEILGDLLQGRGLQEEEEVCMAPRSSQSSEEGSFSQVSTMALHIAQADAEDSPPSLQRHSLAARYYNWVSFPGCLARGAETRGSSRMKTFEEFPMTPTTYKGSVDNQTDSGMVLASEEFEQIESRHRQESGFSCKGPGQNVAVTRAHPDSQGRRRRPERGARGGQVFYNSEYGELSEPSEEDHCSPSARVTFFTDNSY
UniProt Q13705, sequence (whole entry, looked up): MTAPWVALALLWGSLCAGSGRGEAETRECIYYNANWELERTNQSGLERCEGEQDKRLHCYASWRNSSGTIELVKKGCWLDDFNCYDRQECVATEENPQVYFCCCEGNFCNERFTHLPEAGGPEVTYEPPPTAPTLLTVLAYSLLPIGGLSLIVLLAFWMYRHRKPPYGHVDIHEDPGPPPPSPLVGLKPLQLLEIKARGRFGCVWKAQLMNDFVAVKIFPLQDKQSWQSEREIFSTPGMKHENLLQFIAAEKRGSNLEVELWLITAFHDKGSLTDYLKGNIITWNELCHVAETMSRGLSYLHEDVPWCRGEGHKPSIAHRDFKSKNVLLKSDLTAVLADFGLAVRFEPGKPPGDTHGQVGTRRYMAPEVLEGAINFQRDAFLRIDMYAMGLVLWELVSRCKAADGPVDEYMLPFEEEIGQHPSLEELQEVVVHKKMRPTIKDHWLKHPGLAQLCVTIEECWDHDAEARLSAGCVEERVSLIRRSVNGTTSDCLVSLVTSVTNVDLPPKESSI

Series 1
SMILES: CO[C@@H](C)c1c(Nc2ccc([C@@H](N(C)C(=O)C3CCS(=O)(=O)CC3)C(F)(F)F)cc2)cnc2cc(Cl)nn12
Effect on: cell-free assay
Method: competition with immobilised ligand
Tested at: 1 µM
target	remaining binding [%]
Phosphatidylinositol 4,5-bisphosphate 3-kinase catalytic subunit alpha isoform (PIK3CA, Homo sapiens, UniProt P42336, E542K)	78
Insulin-like growth factor 1 receptor (IGF1R, Homo sapiens, UniProt P08069)	97
5'-AMP-activated protein kinase catalytic subunit alpha-1 (PRKAA1, Homo sapiens, UniProt Q13131)	92
Tyrosine-protein kinase receptor TYRO3 (TYRO3, Homo sapiens, UniProt Q06418)	99
Vascular endothelial growth factor receptor 3 (FLT4, Homo sapiens, UniProt P35916)	84
Serine/threonine-protein kinase tousled-like 2 (TLK2, Homo sapiens, UniProt Q86UE8)	100
Serine/threonine-protein kinase SIK3 (SIK3, Homo sapiens, UniProt Q9Y2K2)	100

Series 2
Cell line: mouse MPNST tumor cells
Method: high-content nuclear imaging
Refers to: cell number
Tested at: 10 µM
Time: 12 h
Setting: mean of 2 replicates
Relative to: plate mean
Direction: higher = more cells
Compound	nuclei count
CC(C)Oc1cccc(-n2c(CCc3c[nH]c4ccc(Br)cc34)nc3ccccc3c2=O)c1	0.812 z-score
COc1ccc(C(=O)C2CC2c2ccc(Cl)cc2)cc1 (stereo not shown)	1.05 z-score
Cc1ccc(C)c(Oc2ccncc2C(=O)N2CCN(C3CC3)c3ccccc32)c1	0.542 z-score
Cc1c(Cl)cccc1Nc1ncccc1C(=O)O	0.772 z-score
O=C(NCCO[N+](=O)[O-])c1cccnc1	2 z-score

Series 3
Target: PAS domain-containing serine/threonine-protein kinase (PASK, Homo sapiens, UniProt Q96RG2)
UniProt Q96RG2, sequence (whole entry, looked up): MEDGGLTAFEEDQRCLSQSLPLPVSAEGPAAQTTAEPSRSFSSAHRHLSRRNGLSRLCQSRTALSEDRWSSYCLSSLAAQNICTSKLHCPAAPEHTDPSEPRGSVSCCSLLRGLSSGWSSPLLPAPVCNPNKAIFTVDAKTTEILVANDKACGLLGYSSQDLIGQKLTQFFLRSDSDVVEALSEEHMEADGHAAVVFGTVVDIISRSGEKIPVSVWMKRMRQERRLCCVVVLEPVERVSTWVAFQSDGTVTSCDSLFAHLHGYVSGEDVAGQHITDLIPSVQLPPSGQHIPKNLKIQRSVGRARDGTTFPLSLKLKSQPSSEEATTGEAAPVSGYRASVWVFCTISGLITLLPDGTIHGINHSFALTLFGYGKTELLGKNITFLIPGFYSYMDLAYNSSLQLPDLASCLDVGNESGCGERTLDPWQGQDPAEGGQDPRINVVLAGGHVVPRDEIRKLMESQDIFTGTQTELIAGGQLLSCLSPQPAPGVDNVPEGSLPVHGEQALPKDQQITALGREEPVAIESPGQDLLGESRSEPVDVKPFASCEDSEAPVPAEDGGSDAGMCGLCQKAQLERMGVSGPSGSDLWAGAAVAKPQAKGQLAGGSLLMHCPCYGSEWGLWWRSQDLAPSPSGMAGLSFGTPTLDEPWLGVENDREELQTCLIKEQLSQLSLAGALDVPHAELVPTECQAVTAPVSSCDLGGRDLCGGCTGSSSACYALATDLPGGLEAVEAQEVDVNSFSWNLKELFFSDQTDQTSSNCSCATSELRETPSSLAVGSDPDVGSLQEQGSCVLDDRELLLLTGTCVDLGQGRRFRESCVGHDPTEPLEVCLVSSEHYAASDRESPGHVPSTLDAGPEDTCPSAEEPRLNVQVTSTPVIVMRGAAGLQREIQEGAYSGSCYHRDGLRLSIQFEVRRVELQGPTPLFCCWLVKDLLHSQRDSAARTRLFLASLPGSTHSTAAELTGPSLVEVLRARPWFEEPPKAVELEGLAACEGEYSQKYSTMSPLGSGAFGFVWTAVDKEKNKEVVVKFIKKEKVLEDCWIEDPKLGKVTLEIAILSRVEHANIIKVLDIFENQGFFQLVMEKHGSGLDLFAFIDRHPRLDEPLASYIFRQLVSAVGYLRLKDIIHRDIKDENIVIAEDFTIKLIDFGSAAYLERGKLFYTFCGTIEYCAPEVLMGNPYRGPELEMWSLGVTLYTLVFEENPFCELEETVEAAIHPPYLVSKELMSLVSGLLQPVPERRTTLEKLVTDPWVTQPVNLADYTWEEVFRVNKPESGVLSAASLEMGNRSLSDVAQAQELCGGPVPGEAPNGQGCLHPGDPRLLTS
Effect on: enzyme activity
Mode: inhibitor
Tested at: 0.5 µM
Relative to: control
Structure (SMILES)	remaining activity [%]
CCOC(=O)c1c(C)[nH]c(/C=C2\C(=O)Nc3ccccc32)c1C	91.4
COc1ccc(C(=O)Nc2sc3c(c2C(N)=O)CCCC3)cc1OC	101
Nc1ccc2ncnc(NCCc3ccc(Oc4ccccc4)cc3)c2c1	103
CNC(=O)c1cc(Oc2ccc(NC(=O)Nc3ccc(Cl)c(C(F)(F)F)c3)cc2)ccn1	99.5
Oc1ccc(-c2nc(-c3ccncc3)c(-c3ccc(F)cc3)[nH]2)cc1	79.3
Cc1ccc(Nc2nccc(N(C)c3ccc4c(C)n(C)nc4c3)n2)cc1S(N)(=O)=O	101
O=C1NC(=O)C(c2cn(CCCn3ccnc3)c3ccccc23)=C1Nc1ccccc1	98
CC(C)[C@H](CO)Nc1nc(Nc2cc(N)cc(Cl)c2)c2ncn(C(C)C)c2n1	106
COc1cc2nccc(Oc3ccc(NC(=S)NC(=O)c4ccccc4C)cc3)c2cc1OC	93.6
Cn1c2ccccc2c2c3c(c4c5ccccc5n(CCC#N)c4c21)CNC3=O	84.3
Cc1ccc(NC(=O)c2ccc(CN3CCN(C)CC3)cc2)cc1Nc1nc(-c2cccnc2)cs1	103
O=S(=O)(c1cccc2cnccc12)N1CCCNCC1	97.1
Cn1sc(=O)n(Cc2ccccc2)c1=O	101
O=C(Nc1cccc(Nc2cc(Nc3cccc(C(F)(F)F)c3)ncn2)c1)C1CC1	98.3
COc1cc2ncnc(Nc3ccc(Oc4ccccc4)cc3)c2cc1OC	104
OCC(O)CCON=C1C(c2c(O)[nH]c3ccccc23)=Nc2ccccc21 (stereo not shown)	89.8

Series 4
SMILES: CC#CC(=O)N1CCC[C@H]1c1nc(-c2ccc(C(=O)Nc3ccccn3)cc2)c2c(N)nccn12
Effect on: enzyme activity
Mode: inhibitor
Tested at: 1 µM
target	inhibition [%]
Serine/threonine-protein kinase SBK1 (SBK1, Homo sapiens, UniProt Q52WX2)	9
Cyclin-dependent kinase 2 homolog (CRK2, Plasmodium falciparum, UniProt P61075)	3
Activin receptor type-2B (ACVR2B, Homo sapiens, UniProt Q13705)	0
Protein kinase C delta type (PRKCD, Homo sapiens, UniProt Q05655)	14
Phosphatidylinositol 4,5-bisphosphate 3-kinase catalytic subunit alpha isoform (PIK3CA, Homo sapiens, UniProt P42336, I800L)	33
Serine/threonine-protein kinase D3 (PRKD3, Homo sapiens, UniProt O94806)	17

Some of these lines once more (series 1):
target	remaining binding [%]
Serine/threonine-protein kinase SIK3 (SIK3, Homo sapiens, UniProt Q9Y2K2)	100
Phosphatidylinositol 4,5-bisphosphate 3-kinase catalytic subunit alpha isoform (PIK3CA, Homo sapiens, UniProt P42336, E542K)	78
Insulin-like growth factor 1 receptor (IGF1R, Homo sapiens, UniProt P08069)	97
